Published values gathered from unrelated publications.
Every numbered part comes from another study and shows a few of its results, in no order.

Sample 1 — technique: RNA Bind-n-Seq; form: RNA; matrix: in vitro; tested at: 365 nM; relative to: no-protein control; reading: higher = stronger binding; measurement: RBNS enrichment (R)
Target: RNA binding protein fox-1 homolog 2, RRM domain, GST-SBP tag (RBFOX2, Homo sapiens, UniProt O43251-10, residues 100-194)
Setting: natural RNA segment, single round, ends assumed
Shared flanks, not repeated: GGGAGUUCUACAGUCCGACGAUC … UGGAAUUCUCGGGUGCCAA
Residues (chain): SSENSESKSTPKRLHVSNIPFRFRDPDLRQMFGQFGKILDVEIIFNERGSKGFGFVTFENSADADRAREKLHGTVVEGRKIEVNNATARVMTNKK
CACACACAGACUUAUAAUGCAAAUGGAUCUCUGAUCAUAAAGGCCAAAAUUGUGUUCUAUCUCUACCUCGACAUGGGUGGUUCAACACAAAGUCGGUUAUUGGUGUCUAU: 0.228
ACGGCUGAGCGCAGACGGCUUGUUUUAAAAAGAUGAUGAACAUGACAGUAUUUUGUUUUGCUUUGAUUUGGGGGGGAAGGGUUCAUCUUGCUUUUGGAGGUUGUUUUGGG: 1.27
UGCGACACUCAGAACACUUGAGGUGAUAGUUUUAAAAAAAACAAACAAACAGUACCAGUAUUUGAUCCAGUCUCAUCUCAGCUGUGUUAUACCUGGACAAUUUAGAUGUU: 0.302
UUUUAAAUACAUUUCAAUAAUUUUAACAAAUUUGCAUUUUUAUUGAGUUGCUGACUGAAUCUAUCUUAUACUGUGCUUCUGCAACAACAAAAAUUAUGCAGAAAAAUUCA: 0.739
CAAGCUAUGUCUGGGCUGGUAGUCCCGCCCAUGUGAGGGGCUCUGUUUGCCUUCGCAGCACCCAGCAUCCAAGGACGGACUUCAGGGGACACGUGUAGUGUGUUAAGAUG: 1.46
UCUGAGACCUUGAGGGACCCAGACCUUUGGGUCCAAGAGUUUCCCAAACAGCCACGCCUCUCAGGAACCCACCUGGCGGUUCCGUGAGCUCAGGCAGGCCUGACCCGGCG: 0.358
CUGCCUGGGUCUCUGAGGAAGGAGGGGUCCUGCUUUCUCACCCAGCUCACCCCUUUGGUGACUCAGAGUCCUUCUCAGAAGGAAACCCUGACUCCUGGGCCAUUUCCUAA: 0.149
UUAGUAGAGCCCUGCUUGGGCCUCACUUUGUGGACACCAGGCUGGUGCACCUCCCUUUUCAGGCACUCUGAGUGUCCUUCCCACCCAUGACAAGGCAACCACAGAAGUCA: 0.357
AGCUGGAAGCCUCUGAAAGUUAUUAAAGGACAGAAUCCAAAAGAAUGCCUUUAAUUCUUGUCUGAGAAUCUUGGCCAUGUGUCAGAUUAUCAGAACAAUUUUGUUACCAG: 0.324
UGAUUCAUAUUACAAUAUUUGUGUGCAAAAUGUGUAUGUUUUUCAGUUUAAAGUCAUGUUUUUAAAAUCUUAUUAAAGUUUCAAAAAUCUGAAGAUUGUUUAUCUUAUCU: 0.591
GUUCACCCGAGAUGCCCAGGGGUACCGCCUCCAGCCUCAGGCCUGGAGCAUUCCAUCAAAGUUGGAAUUAGGGGAAGGAGGCCCACUGUCCUCCCCGGUCUCCUGAGAGU: 0.406
AGGCCGAGAAGACCUUCUGUUCCUGUAAAUACAGCCAGCAAGUGCAAACUGUGAUUUUAUUUUCCACGUAUUCCUGAGGACGGACUGGACCGUCUAUGUUUUUUCAGCCC: 0.556

Sample 2 — technique: protein-binding microarray; form: double-stranded DNA, one strand shown; matrix: in vitro; tested at: 250 nM; setting: 60-bp whole probe; added: salmon DNA 0.4 mg/ml; relative to: random background probes; reading: higher = stronger binding; measurement: log fluorescence; shared flanks, not repeated: GCCTAGCAC … GTCTTGATTCGCTTGACGCTGCTG
Target: Interferon regulatory factor 7, full length, phosphomimetic (IRF7, Homo sapiens, UniProt Q92985, residues 1-503, S101K/S471D/S472D/S475D/S476D/S477D/S483D/S484D/S487D)
Target sequence (chain): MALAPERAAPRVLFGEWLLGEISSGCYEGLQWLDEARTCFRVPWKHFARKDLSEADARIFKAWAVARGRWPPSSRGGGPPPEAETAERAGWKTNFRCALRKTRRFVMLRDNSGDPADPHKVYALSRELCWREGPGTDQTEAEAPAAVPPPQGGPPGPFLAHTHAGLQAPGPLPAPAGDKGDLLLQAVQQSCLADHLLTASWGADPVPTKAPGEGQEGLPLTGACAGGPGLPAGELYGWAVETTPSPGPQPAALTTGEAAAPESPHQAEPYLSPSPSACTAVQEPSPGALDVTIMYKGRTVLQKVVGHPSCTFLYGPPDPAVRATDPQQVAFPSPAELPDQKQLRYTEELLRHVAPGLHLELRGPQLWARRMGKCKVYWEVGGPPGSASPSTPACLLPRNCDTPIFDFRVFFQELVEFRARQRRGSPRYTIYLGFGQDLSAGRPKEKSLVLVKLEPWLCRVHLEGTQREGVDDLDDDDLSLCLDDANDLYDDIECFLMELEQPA
TTAGGTATCCTTATGCTTTAGTGCTAG: 0.0394 z-score
GACGATATCCGTATCGAGACGTGCTAG: 0.171 z-score
GACGATATCAGTCTCGACACGTGCTAG: 0.245 z-score
TTAGGTCTCCTTCTCCGTTAGTGCTAG: 0.386 z-score
CTAATTTTGAGACTCATGGGGTGCTAG: 0.73 z-score
GACAATTCCAGTTTCGAGACGTGCTAG: 4.95 z-score
TTAGATTTCGGGACTGGATTCGTGCTA: 0.578 z-score
TCACTTTCCACTTGTCTTTTCGTGCTA: 3.7 z-score
AAACGGGCTTCTTTTTCTCAGGTGCTA: -0.0919 z-score
GACCGTTTCCTACTGCTGACGTGCTAG: 2.46 z-score
CGAGGTCTCGCTATGTTGTCGTGCTAG: 0.845 z-score
TCTGTTTTTGCTTTCCTTCTGTGCTAG: 2.02 z-score
TTAGGACTGGGGTATCAGTTAGTGCTA: -0.487 z-score
TTAGGACTGGGACCGGGTTAGTGCTAG: 0.702 z-score
TCAAATCCCACATTTGATACTGTGCTA: 0.47 z-score
ATAGGTTTCGGTTCCGGTTAGTGCTAG: 13 z-score
TCACTTTTTTTTCTTTAACTGTGCTAG: 1.2 z-score
CCCTGAGTCCCTTGGGCCTTGTGCTAG: -0.642 z-score
GACGGTCTCGGTATGGGGACGTGCTAG: 1.54 z-score
TTAGGACTGCTACTGCCTTAGTGCTAG: -0.558 z-score
TTAGGTATCCTTATCGTTTAGTGCTAG: 0.631 z-score
GTCGGACTGGGTTTCGGGACGTGCTAG: 2.31 z-score
GACGGTGTCGGTTCCGGGACGTGCTAG: -0.271 z-score
TTAGGACTGCTTATCCTATAGTGCTAG: 0.213 z-score
TCAAATTTTTTTTCTAAACTGTGCTAG: 0.268 z-score

Sample 3 — technique: aptamer microarray, sandwich; form: DNA with 2'F-ANA; matrix: in vitro; tested at: 200 nM; added: Cy3 exosite-II aptamer, 400 nM; reading: higher = stronger binding; measurement: mean fluorescence intensity; oligonucleotide: GGTTGGTGTGGTTGG
Target: Prothrombin, mature alpha-thrombin (F2, Homo sapiens, UniProt P00734)
Setting: whole 15-mer aptamer, many near background
2'F-ANA at 2 4 5 6 7 8 11 12 13 15: 80.7 a.u.
2'F-ANA at 1 4 10 11 13 15: 49.3 a.u.
2'F-ANA at 2 5 6 7 8 12: 167 a.u.
2'F-ANA at 3 5 6 7 11 13 14 15: 65.1 a.u.
2'F-ANA at 1 4 5 6 7 11 13 14 15: 57 a.u.
2'F-ANA at 7 9 10 11 12 13 15: 168 a.u.
2'F-ANA at 1 3 7 10 11 14 15: 56.5 a.u.
2'F-ANA at 1 2 3 5 6 8 15: 63.6 a.u.
2'F-ANA at 2 4 5 6 9 11 12 13: 82.8 a.u.
2'F-ANA at 1 3 5 11 13 14: 41.8 a.u.
2'F-ANA at 2 3 4 5 6 11 13 14: 61.6 a.u.
2'F-ANA at 4 5 6 7 12 14: 49.7 a.u.
2'F-ANA at 1 2 3 4 5 7 12 14 15: 48.5 a.u.
2'F-ANA at 1 2 3 7 9 12 15: 529 a.u.
2'F-ANA at 2 3 6 9 10 11 13 15: 314 a.u.
2'F-ANA at 2 3 4 7 9 11 12 13: 618 a.u.
2'F-ANA at 4 5 6 8 10 13 14 15: 46.2 a.u.
2'F-ANA at 2 5 7 9 10 11 14: 42.2 a.u.
2'F-ANA at 2 6 9 10 14 15: 287 a.u.
2'F-ANA at 2 5 6 9 10 11 12 15: 78.2 a.u.

Sample 4 — technique: universal PBM; form: double-stranded DNA, one strand shown; matrix: in vitro; tested at: 600 nM; reading: higher = stronger binding; measurement: E-score
Target: Sal-like protein 4, full length isoform A (SALL4, Homo sapiens, UniProt Q9UJQ4, residues 1-1053)
Chain of UniProt Q9UJQ4 (whole entry, looked up): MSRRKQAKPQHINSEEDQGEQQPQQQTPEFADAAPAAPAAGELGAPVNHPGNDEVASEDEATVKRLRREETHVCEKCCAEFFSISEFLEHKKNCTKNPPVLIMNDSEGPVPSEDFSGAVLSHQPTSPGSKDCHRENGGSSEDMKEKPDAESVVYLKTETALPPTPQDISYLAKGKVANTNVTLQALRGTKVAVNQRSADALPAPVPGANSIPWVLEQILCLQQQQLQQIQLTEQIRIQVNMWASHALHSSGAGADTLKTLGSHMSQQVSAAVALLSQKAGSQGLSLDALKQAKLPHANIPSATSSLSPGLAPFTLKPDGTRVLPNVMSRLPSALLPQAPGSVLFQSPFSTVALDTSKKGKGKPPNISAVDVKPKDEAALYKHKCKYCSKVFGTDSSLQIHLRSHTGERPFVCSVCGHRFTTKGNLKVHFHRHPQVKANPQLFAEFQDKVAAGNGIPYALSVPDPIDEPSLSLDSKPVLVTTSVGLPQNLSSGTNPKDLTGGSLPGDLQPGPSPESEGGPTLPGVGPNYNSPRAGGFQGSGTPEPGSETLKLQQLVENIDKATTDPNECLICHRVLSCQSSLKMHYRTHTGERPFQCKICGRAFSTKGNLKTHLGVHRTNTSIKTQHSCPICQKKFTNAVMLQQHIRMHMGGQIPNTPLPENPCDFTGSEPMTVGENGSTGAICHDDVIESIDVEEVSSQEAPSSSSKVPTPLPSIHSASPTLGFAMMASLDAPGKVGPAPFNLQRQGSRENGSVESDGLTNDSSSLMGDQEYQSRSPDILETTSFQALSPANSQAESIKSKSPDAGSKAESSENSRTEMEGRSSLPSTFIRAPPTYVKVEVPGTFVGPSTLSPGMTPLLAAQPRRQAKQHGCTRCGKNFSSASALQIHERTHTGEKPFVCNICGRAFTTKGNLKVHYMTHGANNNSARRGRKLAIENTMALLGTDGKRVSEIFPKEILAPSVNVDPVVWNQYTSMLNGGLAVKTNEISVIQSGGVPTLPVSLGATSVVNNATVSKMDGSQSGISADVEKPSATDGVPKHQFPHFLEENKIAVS
Setting: 8-mer, flanks averaged, mean of replicates
ATGTTTAA: 0.305
ACCTCGTA: 0.152
CCGCTCTA: 0.0932
AGTCATAC: 0.118
AATTCTGT: 0.212
CGCGGAAA: -0.175
GGGCCTCA: -0.347
ATATAGGG: 0.124
CTTGCGTC: -0.21
CCTATACG: -0.0599
CACTCGCC: -0.284
GTTACAAA: 0.226
GAATTGCC: -0.0181
CAGAACTG: -0.0488
CGCTGCGC: -0.332
AGGTTCCG: -0.185
GGCATGGA: -0.0932

Sample 5 — technique: RNA Bind-n-Seq; form: RNA; matrix: in vitro; tested at: 100 nM; setting: RNA with constant flanks, ends assumed; relative to: input RNA pool; reading: higher = stronger binding; measurement: bound/input enrichment
Target: RING finger protein unkempt homolog, zinc fingers 1-6, SBP tag (UNK, Homo sapiens, UniProt Q9C0B0, residues 30-357)
Chain of UniProt Q9C0B0 (30-357, looked up): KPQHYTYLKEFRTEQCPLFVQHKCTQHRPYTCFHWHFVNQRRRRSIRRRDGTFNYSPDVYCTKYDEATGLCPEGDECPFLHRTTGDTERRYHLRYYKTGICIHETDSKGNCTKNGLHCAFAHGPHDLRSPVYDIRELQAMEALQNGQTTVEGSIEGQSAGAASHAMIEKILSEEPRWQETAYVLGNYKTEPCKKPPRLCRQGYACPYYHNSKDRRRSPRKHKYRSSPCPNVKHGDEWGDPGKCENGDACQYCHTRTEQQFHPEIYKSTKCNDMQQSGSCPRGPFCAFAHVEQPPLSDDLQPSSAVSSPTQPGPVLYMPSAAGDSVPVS
GGGAGUUCUACAGUCCGACGAUCGGCCUCCAACAGGCAAAUUCAGGGAGGACCGGUUUCAGGGAAUAUAAAUUUAUUUAAUAUCCGUGGUCUUUAAGUAUAAACUUGAUGUAAUUGGUUUGGGAGGGGGCAGUGAUGAUGACUCAACAGAGGAUUGAGCAUCA: 0.823 ratio
GGGAGUUCUACAGUCCGACGAUCCUGUUUUGUGAAACAUGUCUACCCAGAAAAGCCGCAUUCUAUAAAUACUAUUAAACAACUCCGCUAUAUUAUUUUUAAGUAUUAAAUUAUAUGUCAAGCAGUUAAAGUGAAUUUCAGAGUCAACAGAGGAUUGAGCAUCA: 0.553 ratio
GGGAGUUCUACAGUCCGACGAUCAGAGGAUCCGGUUCCAUCCUUUACGUGUUUAAAAAAAAGCAUAAAAACAUUUUAAAAACACCGAAAAAUUCAGCAAACCAUUUUUAAAGCCGAAGAGGGUUUCCGGCCGAAAAACAUAUUCAACAGAGGAUUGAGCAUCA: 0.499 ratio

Repeated from above (sample 1):
ACGGCUGAGCGCAGACGGCUUGUUUUAAAAAGAUGAUGAACAUGACAGUAUUUUGUUUUGCUUUGAUUUGGGGGGGAAGGGUUCAUCUUGCUUUUGGAGGUUGUUUUGGG: 1.27
UGCGACACUCAGAACACUUGAGGUGAUAGUUUUAAAAAAAACAAACAAACAGUACCAGUAUUUGAUCCAGUCUCAUCUCAGCUGUGUUAUACCUGGACAAUUUAGAUGUU: 0.302
UUUUAAAUACAUUUCAAUAAUUUUAACAAAUUUGCAUUUUUAUUGAGUUGCUGACUGAAUCUAUCUUAUACUGUGCUUCUGCAACAACAAAAAUUAUGCAGAAAAAUUCA: 0.739
CAAGCUAUGUCUGGGCUGGUAGUCCCGCCCAUGUGAGGGGCUCUGUUUGCCUUCGCAGCACCCAGCAUCCAAGGACGGACUUCAGGGGACACGUGUAGUGUGUUAAGAUG: 1.46
UCUGAGACCUUGAGGGACCCAGACCUUUGGGUCCAAGAGUUUCCCAAACAGCCACGCCUCUCAGGAACCCACCUGGCGGUUCCGUGAGCUCAGGCAGGCCUGACCCGGCG: 0.358
CUGCCUGGGUCUCUGAGGAAGGAGGGGUCCUGCUUUCUCACCCAGCUCACCCCUUUGGUGACUCAGAGUCCUUCUCAGAAGGAAACCCUGACUCCUGGGCCAUUUCCUAA: 0.149
